Measurements gathered from unrelated publications.
Parts stem from different laboratories: compare values within a part only.

Study 1
Target: RNA binding protein fox-1 homolog 2, RRM domain, GST-SBP tag (RBFOX2, Homo sapiens, UniProt O43251-10, residues 100-194)
Technique: RNA Bind-n-Seq
Molecule type: RNA
Sample: in vitro
Tested at: 365 nM
Notes: natural RNA segment, single round, ends assumed
Relative to: no-protein control
Reading: higher = stronger binding
Shared flanks, not repeated: GGGAGUUCUACAGUCCGACGAUC … UGGAAUUCUCGGGUGCCAA
`AAAAUCAGUGAGACAUAAGCCAACAAGAGAAACCAUCUCUGACCACCCCCUCCUCCCCAUCCCACCCUUUGGAAACUCCCCAUUGUCACUGAGAACCACCAAAUCUGACU` — result for “RBNS enrichment (R)”: 0.662.
For `CCCAAGAGCCUGGAGGCACUGCUGUCCUUCCUGCAGAAACAGUUUCUCCUCCUCCCCUCAGCCUUGUGGCCAGUUCCUCUUCACAUGAAGCCCCUGGCAUUUGCUGGGGA`, “RBNS enrichment (R)” read 0.378.
`CUUAGUUUUACAAGAAAAACCAUUUGCUACUGAAUGCUUAAACUAAUUUUAGUGUUUAAUGUUACAUGCUUAAAUUUUUUUCAGUUUUAACAGUGGCAUAUUUAGGCAUG`: “RBNS enrichment (R)” 0.4.
Under “RBNS enrichment (R)”, `GCCUUCCCCUGAUAACCAUUUUAACCCAUGGCCUUCGUCAAAACCCUUUCAUUUAGCUACUUCAAAUAAUGUUAUCCACCUCCUGUCUCACAGCAGUGGGUACAGCCUGU` is recorded as 0.669.
`UCCUAACAACUUUUAUUUGACACAUUAAAAAAUUUCUGACUGUCCUUAAGACAGUAGAGAUGUCUCUCUUUUAUUUGAGUUUGUGACUGACUUUGCCUAUAUAUCUUUCU`: “RBNS enrichment (R)” 1.68.
`AAGCAUAUCUACCCAUGGCGGAAAAUGAAGUCAGAAAGAUUUGUAGUGACAUUAGGCAGAAAUGGCCAGUCAAACACAUAGCAGUGUUCCAUAGACUUGGUAGAAUGGUC` — result for “RBNS enrichment (R)”: 0.426.
For `GGAGGCUGGGCCAGGAGGCAGCCUCCGAACCAUGCCCCAUAUAACGCUUGGGUGCGUGGGAGGGCGCACAUCAGGGCAGAGGCCAAGUUCCAGGUGUCUGUGUUCCCAGG`, “RBNS enrichment (R)” read 0.948.
`AUUAGGAGAUAUUAAAAGAUUGAUGUCUUAGAAGGACAGGGUUAAAACCUUCUGUAAUAUAUUUAAAUAUAUAUUUUUAAGAGAGAUGCUACAUUGCCAAUGAUUUUAUA`: “RBNS enrichment (R)” 0.879.
For `CAUAAGUAUAUACUUGAAAGUACAUCUGUAGCCUAUGAUUUGAGUCUCUUGAAGUUCUAGGAAGAGGCAAACUACAAACUACUAGGAUUCUGAUUUCAGAUGUAGUCAUU`, “RBNS enrichment (R)” read 0.592.
`UUGUCUCCUCUAAUAAGCCCCACCCUCCCCGCCUGGGCUCCCCUUGCUGCCCUUGCCUGUUCCCCAUUAGCACAGGAGUAGCAGCAGCAGGACAGGCAAGAGCCUCACAA` — result for “RBNS enrichment (R)”: 0.393.
`GAUGGUUAGACUUGUAGUCACUGGGCUUUUGUUUUGCUUUAUGGAAAUCAUUGAAGGUCUGGAUCCCUUUCUCUGAAUGGAGAGAUUGAGAGGGAUGUCGGGCAGUUCCC`: “RBNS enrichment (R)” 1.71.
`UGUUCUUGAGAUAGACUUUAAAAUGAACCAGCUCUGAAAAGUACUUCUGCUGCUCUGGUCUAUCCCUGAAAACAGAUGUCUUGAAACACUUUUCAUAUUCUUAAAAUAAU`: “RBNS enrichment (R)” 0.401.

Study 2
Target: Prothrombin, mature alpha-thrombin (F2, Homo sapiens, UniProt P00734)
Technique: aptamer microarray, sandwich
Molecule type: DNA with 2'F-ANA
Sample: in vitro
Tested at: 200 nM
Notes: whole 15-mer aptamer, many near background
Added: Cy3 exosite-II aptamer, 400 nM
Reading: higher = stronger binding
Oligonucleotide: GGTTGGTGTGGTTGG
Under “mean fluorescence intensity”, `2'F-ANA at 4 8 9 10 11 12 13 15` is recorded as 79.6 a.u.
`2'F-ANA at 1 2 4 5 9 11`: “mean fluorescence intensity” 52.1 a.u.
`2'F-ANA at 2 5 6 7 8 9 10 12 14` — result for “mean fluorescence intensity”: 58.6 a.u.
`2'F-ANA at 3 4 5 7 8 9 11 12`: “mean fluorescence intensity” 221 a.u.
Under “mean fluorescence intensity”, `2'F-ANA at 3 4 7 10 11 14 15` is recorded as 197 a.u.
`2'F-ANA at 1 4 5 7 10 11 12 13`: “mean fluorescence intensity” 46.2 a.u.
Under “mean fluorescence intensity”, `2'F-ANA at 2 3 8 9 11 13` is recorded as 649 a.u.
For `2'F-ANA at 1 4 6 8 13 14 15`, “mean fluorescence intensity” read 51.7 a.u.
`2'F-ANA at 5 12 13 14` — result for “mean fluorescence intensity”: 44.7 a.u.
Under “mean fluorescence intensity”, `2'F-ANA at 1 4 6 8 10 11 12 13` is recorded as 83.8 a.u.
`2'F-ANA at 2 3 4 5 9 11 12 13 14 15`: “mean fluorescence intensity” 53.7 a.u.
`2'F-ANA at 1 3 4 5 7 8 11 12 13 14`: “mean fluorescence intensity” 46.2 a.u.
`2'F-ANA at 1 2 4 5 6 7 11 14 15` — result for “mean fluorescence intensity”: 49.4 a.u.
For `2'F-ANA at 2 3 5 6 7 13 14 15`, “mean fluorescence intensity” read 59.2 a.u.
Under “mean fluorescence intensity”, `2'F-ANA at 1 3 4 6 7 8 9 10 11 12 15` is recorded as 73.6 a.u.
`2'F-ANA at 1 3 4 6 11` — result for “mean fluorescence intensity”: 157 a.u.
Under “mean fluorescence intensity”, `2'F-ANA at 4 6 7 11 12 13` is recorded as 329 a.u.
For `2'F-ANA at 4 6 7 8 10 14`, “mean fluorescence intensity” read 73.9 a.u.
For `2'F-ANA at 1 2 6 8 12 13`, “mean fluorescence intensity” read 318 a.u.

Study 3
Target: Interferon regulatory factor 3, full length, phosphomimetic (IRF3, Homo sapiens, UniProt Q14653, residues 1-427, S386D/S396D/S398D/S402D/T404D/S405D)
Chain of UniProt Q14653 (whole entry, unmodified, looked up): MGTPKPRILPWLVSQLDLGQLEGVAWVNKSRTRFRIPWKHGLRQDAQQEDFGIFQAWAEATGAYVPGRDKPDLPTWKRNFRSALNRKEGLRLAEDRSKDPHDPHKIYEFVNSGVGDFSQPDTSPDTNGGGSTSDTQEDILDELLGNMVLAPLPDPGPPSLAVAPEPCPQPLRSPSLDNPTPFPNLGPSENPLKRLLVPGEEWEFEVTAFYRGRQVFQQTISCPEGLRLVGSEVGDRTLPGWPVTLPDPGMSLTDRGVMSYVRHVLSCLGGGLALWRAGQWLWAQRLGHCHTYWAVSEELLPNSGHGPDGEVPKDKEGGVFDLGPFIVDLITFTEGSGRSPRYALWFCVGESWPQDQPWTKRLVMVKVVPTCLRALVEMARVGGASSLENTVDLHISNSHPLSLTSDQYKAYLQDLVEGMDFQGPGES
Technique: protein-binding microarray
Molecule type: double-stranded DNA, one strand shown
Sample: in vitro
Tested at: 2540 nM top
Notes: 60-bp whole probe
Added: salmon DNA 0.4 mg/ml
Relative to: random background probes
Reading: higher = stronger binding
Shared flanks, not repeated: GCCTAGCAC … GTCTTGATTCGCTTGACGCTGCTG
`TTAGAACTGGCGACTGGATTAGTGCTA`: “fitted relative affinity” -0.819 z-score.
`TTAGATTTCATTTCCGATTAGTGCTAG` — result for “fitted relative affinity”: 4.31 z-score.
Under “fitted relative affinity”, `TCAGTTTCCCCTATTTAACTGTGCTAG` is recorded as 5.45 z-score.
`GACGGGTCCCTTTTCCTGACGTGCTAG`: “fitted relative affinity” 3.17 z-score.
`TTAGATTTCAGGTCCGATTAGTGCTAG`: “fitted relative affinity” 1.88 z-score.
`TTACATTTCGGGACTGGATTAGTGCTA`: “fitted relative affinity” 1.32 z-score.
Under “fitted relative affinity”, `TTAGGACTGGGCTTCGGTTAGTGCTAG` is recorded as -0.977 z-score.
Under “fitted relative affinity”, `GACGATTTCGGGCCTGGAGACGTGCTA` is recorded as 0.729 z-score.
`TTAGATTTCGGGTTGCGATTAGTGCTA` — result for “fitted relative affinity”: 1.74 z-score.
`GACCATCTCATATAAATAGGCGTGCTA` — result for “fitted relative affinity”: 1.5 z-score.
`GACGGTATCGGGTATCGGGTCGTGCTA` — result for “fitted relative affinity”: 2.09 z-score.
`TTAGGACTGGGTTTCGGTTAGTGCTAG`: “fitted relative affinity” 2.85 z-score.
Under “fitted relative affinity”, `TCAGTTCTGATCCTTCCCACTGTGCTA` is recorded as 1.56 z-score.
For `TTAGAACTGAGACTGGATTAGTGCTAG`, “fitted relative affinity” read -0.286 z-score.
Under “fitted relative affinity”, `GACGGTCTCCTACTGCTGCCGTGCTAG` is recorded as 0.842 z-score.
`TCATTTCCATTTTCTAAAACTGTGCTA` — result for “fitted relative affinity”: 5.37 z-score.
For `TCACTTCTCCCTTTCAGTTTGTGCTAG`, “fitted relative affinity” read 3.3 z-score.
Under “fitted relative affinity”, `GACGGTTTCGACTATCGGTACGTGCTA` is recorded as 3.07 z-score.
`GACGGCCTCCTTTTCCTGACGTGCTAG`: “fitted relative affinity” 0.798 z-score.
`GTAGGACTGGACACTGGGTTAGTGCTA` — result for “fitted relative affinity”: -1.1 z-score.

Study 4
Target: PABPC1L2, full length, GST fusion (mouse, UniProt A0ABA7IW68)
Technique: RNAcompete
Molecule type: RNA
Sample: in vitro
Tested at: 20 nM
Notes: 7-mer, probes averaged, single round
Relative to: mean of 7-mers
Reading: higher = stronger binding
Construct (chain): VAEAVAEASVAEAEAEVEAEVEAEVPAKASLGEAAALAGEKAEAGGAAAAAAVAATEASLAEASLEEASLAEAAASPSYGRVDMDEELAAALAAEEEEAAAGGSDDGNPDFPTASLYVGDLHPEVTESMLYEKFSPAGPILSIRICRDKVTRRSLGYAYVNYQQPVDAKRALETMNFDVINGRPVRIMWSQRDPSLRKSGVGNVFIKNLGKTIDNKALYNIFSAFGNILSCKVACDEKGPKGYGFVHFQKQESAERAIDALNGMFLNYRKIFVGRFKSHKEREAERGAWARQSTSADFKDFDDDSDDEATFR
For `UUCCGGG`, the 7-mer Z-score was -0.246.
`GUACUCU` has a 7-mer Z-score of -0.354.
With `ACAAUGA` the 7-mer Z-score was 0.249.
`ACAUAUC` gave a 7-mer Z-score of -0.0554.
`UAUCCGC` gave a 7-mer Z-score of -0.36.
With `AUCUCGG` the 7-mer Z-score was -0.0808.
`UGGAACA` has a 7-mer Z-score of 0.26.
With `AGGCGCC` the 7-mer Z-score was -0.248.
With `CAUGGUU` the 7-mer Z-score was -0.347.
`CAAGAUA` gave a 7-mer Z-score of 0.037.
For `GUUAGGU`, the 7-mer Z-score was -0.168.
For `AUCCCAG`, the 7-mer Z-score was -0.213.
`GAGGGGU` has a 7-mer Z-score of 0.137.
With `CUGGCGG` the 7-mer Z-score was 0.0442.
`AGCUAAG` has a 7-mer Z-score of -0.15.
`UAGAAGG` gave a 7-mer Z-score of 0.106.
For `ACUAAAU`, the 7-mer Z-score was 0.693.
`CGACCUC` has a 7-mer Z-score of -0.0645.
`AGGCGGU` gave a 7-mer Z-score of 0.169.
`GCGGGCU` has a 7-mer Z-score of 0.066.
For `ACGCACA`, the 7-mer Z-score was -0.106.
For `AUGACCG`, the 7-mer Z-score was 0.0279.

Study 5
Target: Histone acetyltransferase KAT6A, winged helix 2, GST fusion (KAT6A, Homo sapiens, UniProt Q92794, residues 85-181)
Technique: protein binding microarray
Molecule type: double-stranded DNA, one strand shown
Sample: in vitro
Tested at: not given
Notes: 8-mer, flanks averaged, mean of 2 arrays, mostly near background
Relative to: not given
Reading: higher = stronger binding
Residues (chain): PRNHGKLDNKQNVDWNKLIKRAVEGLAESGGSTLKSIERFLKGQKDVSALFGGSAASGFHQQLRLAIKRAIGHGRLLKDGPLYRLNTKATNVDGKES
`ATGACGTC` has an E-score of -0.0856.
`ACGCACTA` gave an E-score of 0.0239.
`ATATGCGG` gave an E-score of 0.0461.
The E-score of `GAGTTTCA` is reported as 0.0744.
With `GTGTTAAC` the E-score was 0.0559.
`CATGACCG` has an E-score of -0.04.
For `AAATCTGG`, the E-score was 0.113.
`CCTAATCA` has an E-score of 0.0581.
The E-score of `CGACACTA` is reported as -0.00472.
For `AAGTAAAT`, the E-score was -0.146.
`AGTCGTAC` gave an E-score of -0.279.
`AGAACCGG` gave an E-score of -0.0796.
The E-score of `GTACCATA` is reported as -0.0653.
`CCGGTTGC` has an E-score of 0.19.
For `CTTCTTGC`, the E-score was 0.151.
The E-score of `CATAGGGA` is reported as -0.0389.
The E-score of `GATATAAA` is reported as -0.0414.
The E-score of `GACAGGTC` is reported as -0.0176.
For `ACTGCCCA`, the E-score was -0.248.
`AATCGCGA` has an E-score of 0.1.
For `AACTCTCG`, the E-score was 0.00345.
With `ACACATCG` the E-score was -0.123.
For `CGCCCTTC`, the E-score was 0.139.

Some of these lines once more (study 2):
For `2'F-ANA at 1 4 6 8 13 14 15`, “mean fluorescence intensity” read 51.7 a.u.
`2'F-ANA at 5 12 13 14` — result for “mean fluorescence intensity”: 44.7 a.u.
Under “mean fluorescence intensity”, `2'F-ANA at 1 4 6 8 10 11 12 13` is recorded as 83.8 a.u.
`2'F-ANA at 2 3 4 5 9 11 12 13 14 15`: “mean fluorescence intensity” 53.7 a.u.
`2'F-ANA at 1 3 4 5 7 8 11 12 13 14`: “mean fluorescence intensity” 46.2 a.u.
`2'F-ANA at 1 2 4 5 6 7 11 14 15` — result for “mean fluorescence intensity”: 49.4 a.u.
For `2'F-ANA at 2 3 5 6 7 13 14 15`, “mean fluorescence intensity” read 59.2 a.u.
Under “mean fluorescence intensity”, `2'F-ANA at 1 3 4 6 7 8 9 10 11 12 15` is recorded as 73.6 a.u.
`2'F-ANA at 1 3 4 6 11` — result for “mean fluorescence intensity”: 157 a.u.
Under “mean fluorescence intensity”, `2'F-ANA at 4 6 7 11 12 13` is recorded as 329 a.u.
For `2'F-ANA at 4 6 7 8 10 14`, “mean fluorescence intensity” read 73.9 a.u.
For `2'F-ANA at 1 2 6 8 12 13`, “mean fluorescence intensity” read 318 a.u.
